Measurements from different studies.
Parts stem from different laboratories: compare values within a part only.
Chain of UniProt P54764 (whole entry, looked up): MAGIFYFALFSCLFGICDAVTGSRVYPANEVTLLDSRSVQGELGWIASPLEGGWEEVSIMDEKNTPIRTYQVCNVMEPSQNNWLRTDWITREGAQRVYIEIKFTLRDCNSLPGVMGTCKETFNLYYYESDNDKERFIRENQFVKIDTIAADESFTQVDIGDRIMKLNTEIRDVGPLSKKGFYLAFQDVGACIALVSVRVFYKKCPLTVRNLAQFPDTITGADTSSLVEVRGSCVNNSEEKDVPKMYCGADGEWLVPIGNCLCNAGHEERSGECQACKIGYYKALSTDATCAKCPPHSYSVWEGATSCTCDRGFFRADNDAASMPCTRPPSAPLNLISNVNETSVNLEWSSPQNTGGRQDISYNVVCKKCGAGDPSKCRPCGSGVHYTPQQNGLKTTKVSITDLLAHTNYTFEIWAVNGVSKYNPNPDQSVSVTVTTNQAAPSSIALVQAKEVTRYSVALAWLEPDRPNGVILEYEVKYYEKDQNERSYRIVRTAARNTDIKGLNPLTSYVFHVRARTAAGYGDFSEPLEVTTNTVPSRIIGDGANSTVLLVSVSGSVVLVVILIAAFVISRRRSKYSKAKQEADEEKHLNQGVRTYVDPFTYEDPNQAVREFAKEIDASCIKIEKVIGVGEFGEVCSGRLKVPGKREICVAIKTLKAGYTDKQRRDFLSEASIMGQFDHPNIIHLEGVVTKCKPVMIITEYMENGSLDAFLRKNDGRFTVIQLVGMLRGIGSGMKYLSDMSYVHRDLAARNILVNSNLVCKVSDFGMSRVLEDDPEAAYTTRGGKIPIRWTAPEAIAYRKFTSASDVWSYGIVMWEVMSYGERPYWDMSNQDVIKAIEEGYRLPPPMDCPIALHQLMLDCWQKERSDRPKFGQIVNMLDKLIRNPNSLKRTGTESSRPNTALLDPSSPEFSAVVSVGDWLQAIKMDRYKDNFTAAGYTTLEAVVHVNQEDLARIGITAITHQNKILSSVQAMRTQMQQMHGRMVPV
Chain of UniProt Q16816 (whole entry, looked up): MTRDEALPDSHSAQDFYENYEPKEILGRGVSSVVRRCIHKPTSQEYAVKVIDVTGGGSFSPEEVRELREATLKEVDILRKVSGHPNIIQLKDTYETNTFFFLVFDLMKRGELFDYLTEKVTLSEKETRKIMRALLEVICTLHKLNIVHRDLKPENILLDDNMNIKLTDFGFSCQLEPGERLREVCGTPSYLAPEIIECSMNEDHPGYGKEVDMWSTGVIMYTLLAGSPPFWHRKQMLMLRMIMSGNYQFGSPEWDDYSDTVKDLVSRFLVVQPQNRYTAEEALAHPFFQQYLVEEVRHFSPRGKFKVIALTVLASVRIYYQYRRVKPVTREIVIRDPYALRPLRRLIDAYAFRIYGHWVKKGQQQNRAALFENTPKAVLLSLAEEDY
Chain of UniProt P30530 (whole entry, looked up): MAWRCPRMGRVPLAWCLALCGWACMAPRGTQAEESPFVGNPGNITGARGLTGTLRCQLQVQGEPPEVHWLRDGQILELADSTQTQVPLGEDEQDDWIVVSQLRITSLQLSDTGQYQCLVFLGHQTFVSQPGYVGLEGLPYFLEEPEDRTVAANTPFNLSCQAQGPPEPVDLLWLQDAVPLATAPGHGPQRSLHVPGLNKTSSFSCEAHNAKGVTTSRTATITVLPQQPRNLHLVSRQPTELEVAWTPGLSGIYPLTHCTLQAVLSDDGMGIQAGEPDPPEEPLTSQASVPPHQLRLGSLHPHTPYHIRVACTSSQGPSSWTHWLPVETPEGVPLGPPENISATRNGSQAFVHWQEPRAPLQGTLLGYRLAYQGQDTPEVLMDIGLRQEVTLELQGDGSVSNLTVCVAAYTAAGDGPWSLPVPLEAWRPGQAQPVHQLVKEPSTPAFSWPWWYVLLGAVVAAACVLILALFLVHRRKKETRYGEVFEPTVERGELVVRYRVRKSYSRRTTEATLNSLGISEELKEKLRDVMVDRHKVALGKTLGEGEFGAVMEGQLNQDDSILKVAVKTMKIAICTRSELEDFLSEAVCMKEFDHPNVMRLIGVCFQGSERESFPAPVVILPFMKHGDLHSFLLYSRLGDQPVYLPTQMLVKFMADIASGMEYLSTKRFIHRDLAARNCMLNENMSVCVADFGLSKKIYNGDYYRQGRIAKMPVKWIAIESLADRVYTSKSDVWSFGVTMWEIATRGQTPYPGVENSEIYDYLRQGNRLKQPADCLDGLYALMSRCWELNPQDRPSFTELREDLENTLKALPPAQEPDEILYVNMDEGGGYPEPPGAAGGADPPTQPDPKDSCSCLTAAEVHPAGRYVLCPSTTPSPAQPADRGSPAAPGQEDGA
Chain of UniProt P51451 (whole entry, looked up): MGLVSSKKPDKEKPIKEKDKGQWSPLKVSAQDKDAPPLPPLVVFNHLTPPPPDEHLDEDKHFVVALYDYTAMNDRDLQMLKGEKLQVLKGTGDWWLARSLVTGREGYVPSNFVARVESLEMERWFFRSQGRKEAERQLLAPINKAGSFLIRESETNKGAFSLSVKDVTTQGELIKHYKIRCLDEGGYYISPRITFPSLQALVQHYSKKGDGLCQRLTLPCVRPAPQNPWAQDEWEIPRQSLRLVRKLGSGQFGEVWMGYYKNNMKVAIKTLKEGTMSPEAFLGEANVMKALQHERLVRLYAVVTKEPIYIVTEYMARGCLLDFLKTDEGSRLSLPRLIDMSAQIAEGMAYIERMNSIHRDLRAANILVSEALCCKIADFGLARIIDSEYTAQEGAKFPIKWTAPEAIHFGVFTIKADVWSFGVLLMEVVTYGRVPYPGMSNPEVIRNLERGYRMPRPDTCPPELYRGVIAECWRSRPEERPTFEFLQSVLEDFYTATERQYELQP
Chain of UniProt Q9H2X6 (whole entry, looked up): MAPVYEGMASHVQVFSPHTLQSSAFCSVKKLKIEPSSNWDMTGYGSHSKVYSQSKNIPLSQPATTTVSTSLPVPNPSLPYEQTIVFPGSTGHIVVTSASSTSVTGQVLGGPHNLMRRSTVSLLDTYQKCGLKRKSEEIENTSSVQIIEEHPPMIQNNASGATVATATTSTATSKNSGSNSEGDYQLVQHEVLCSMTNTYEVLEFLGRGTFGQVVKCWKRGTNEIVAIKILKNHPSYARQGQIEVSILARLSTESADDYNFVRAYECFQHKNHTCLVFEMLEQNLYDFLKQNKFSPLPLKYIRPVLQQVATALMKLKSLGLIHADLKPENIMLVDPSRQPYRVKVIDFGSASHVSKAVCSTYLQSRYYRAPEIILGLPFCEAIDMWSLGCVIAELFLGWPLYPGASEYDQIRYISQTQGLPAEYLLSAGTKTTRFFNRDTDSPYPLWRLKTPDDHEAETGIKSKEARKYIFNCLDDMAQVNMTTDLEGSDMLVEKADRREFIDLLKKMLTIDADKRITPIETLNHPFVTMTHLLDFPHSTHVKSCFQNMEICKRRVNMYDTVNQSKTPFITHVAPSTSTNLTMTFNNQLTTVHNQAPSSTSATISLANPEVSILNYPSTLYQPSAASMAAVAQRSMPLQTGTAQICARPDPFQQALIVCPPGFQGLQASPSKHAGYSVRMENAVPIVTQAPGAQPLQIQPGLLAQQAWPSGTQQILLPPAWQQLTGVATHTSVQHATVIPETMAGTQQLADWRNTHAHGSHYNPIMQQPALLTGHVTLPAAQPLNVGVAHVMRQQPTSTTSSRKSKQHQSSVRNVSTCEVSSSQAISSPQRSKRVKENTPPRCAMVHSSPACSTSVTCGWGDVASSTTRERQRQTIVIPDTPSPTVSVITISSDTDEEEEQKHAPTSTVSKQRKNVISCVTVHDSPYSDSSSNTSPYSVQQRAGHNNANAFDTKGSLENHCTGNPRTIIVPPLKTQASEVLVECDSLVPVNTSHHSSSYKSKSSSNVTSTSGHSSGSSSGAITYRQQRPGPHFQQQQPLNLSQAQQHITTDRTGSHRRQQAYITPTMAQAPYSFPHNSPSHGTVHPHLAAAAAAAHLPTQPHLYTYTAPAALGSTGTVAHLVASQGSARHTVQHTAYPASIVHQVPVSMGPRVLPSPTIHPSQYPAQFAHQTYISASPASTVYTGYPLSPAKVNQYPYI
Chain of UniProt Q9H3Y6 (whole entry, looked up): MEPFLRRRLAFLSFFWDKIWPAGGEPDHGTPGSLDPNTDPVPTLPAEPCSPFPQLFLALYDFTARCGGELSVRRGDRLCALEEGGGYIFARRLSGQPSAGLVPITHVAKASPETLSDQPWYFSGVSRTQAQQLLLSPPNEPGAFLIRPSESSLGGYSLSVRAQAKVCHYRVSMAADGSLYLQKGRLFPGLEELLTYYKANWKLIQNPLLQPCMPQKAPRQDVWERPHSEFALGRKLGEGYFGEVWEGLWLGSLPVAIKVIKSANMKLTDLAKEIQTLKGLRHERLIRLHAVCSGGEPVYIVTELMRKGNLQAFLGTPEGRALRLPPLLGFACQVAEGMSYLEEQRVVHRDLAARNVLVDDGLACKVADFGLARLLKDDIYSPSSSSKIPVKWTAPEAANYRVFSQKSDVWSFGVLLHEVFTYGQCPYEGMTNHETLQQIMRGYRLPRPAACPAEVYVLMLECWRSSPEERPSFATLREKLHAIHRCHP

Series 1
Structure (SMILES): COC[C@H]1OC(=O)c2coc3c2[C@@]1(C)C1=C(C3=O)[C@@H]2CCC(=O)[C@@]2(C)C[C@H]1OC(C)=O
Read-out: enzyme activity
Mode: inhibitor
Concentration: 0.5 µM
Reference: control
target | remaining activity
Tyrosine-protein kinase ABL1 (ABL1, Homo sapiens, UniProt P00519) | 101%
Ephrin type-A receptor 4 (EPHA4, Homo sapiens, UniProt P54764) | 96%
Cyclin-dependent kinase 4, with cyclin D3 (CDK4, Homo sapiens, UniProt P11802) | 98.8%
Phosphorylase b kinase gamma catalytic chain, skeletal muscle/heart isoform (PHKG1, Homo sapiens, UniProt Q16816) | 92.6%
Tyrosine-protein kinase receptor UFO (AXL, Homo sapiens, UniProt P30530) | 99%
3-phosphoinositide-dependent protein kinase 1 (PDPK1, Homo sapiens, UniProt O15530) | 96.5%
Tyrosine-protein kinase Blk (BLK, Homo sapiens, UniProt P51451) | 87.8%
Mitogen-activated protein kinase kinase kinase kinase 4 (MAP4K4, Homo sapiens, UniProt O95819) | 93%
Homeodomain-interacting protein kinase 2 (HIPK2, Homo sapiens, UniProt Q9H2X6) | 99.6%
cAMP-dependent protein kinase catalytic subunit gamma (PRKACG, Homo sapiens, UniProt P22612) | 96.1%
Tyrosine-protein kinase Srms (SRMS, Homo sapiens, UniProt Q9H3Y6) | 103%
Calcium/calmodulin-dependent protein kinase type II subunit beta (CAMK2B, Homo sapiens, UniProt Q13554) | 95.7%
Testis-specific serine/threonine-protein kinase 2 (TSSK2, Homo sapiens, UniProt Q96PF2) | 96.9%

Series 2
Target: HLA class I histocompatibility antigen, A alpha chain, allele A*80:01 (Homo sapiens, UniProt P04439)
Read-out: peptide-MHC binding
Molecule type: peptide
Direction: direction not given
Molecule | z-score of log IC50
FGALFMWLL | 0.38
AELIDSFTW | 0.38
DELWRGLLA | 0.38
DETFVHSGF | 0.38
FVDVGVSAL | 0.38
AINGFVLPK | 0.38
AARHKHQVM | 0.38
DEMVCKWLL | 0.38

Series 3
Organism: Sarcocystis neurona
Read-out: parasite growth
Concentration: 10 µM
Setting: secondary screen
SMILES | inhibition [%]
CN1CC[C@@]23CCCC[C@@H]2[C@@H]1Cc1ccc(O)cc13.O=C(O)C(O)C(O)C(=O)O | -38.9
NCCc1ccccn1 | -11.7
CC(C)N(CCC(C(N)=O)(c1ccccc1)c1ccccn1)C(C)C (centres unmarked) | -46.2

Series 4
Cell line: mouse MPNST tumor cells
Method: high-content immunofluorescence imaging
Measured: nuclear SOX9
Concentration: 10 µM
Time: 12 h
Setting: mean of 2 replicates
Reference: DMSO control
Direction: higher = more nuclear SOX9
SMILES | nuclear SOX9 intensity
NP(N)(=O)NC(=O)c1ccc(F)cc1 | 101 % of DMSO
CC(C)[N+](C)(CCC(C(N)=O)(c1ccccc1)c1ccccc1)C(C)C | 90.4 % of DMSO
CC[C@@]1([C@@H]2O[C@@H]([C@H]3O[C@@](O)(CO)[C@H](C)C[C@@H]3C)C[C@@H]2C)CC[C@H]([C@]2(C)CC[C@]3(C[C@H](O)[C@@H](C)[C@@H]([C@@H](C)[C@@H](OC)[C@H](C)C(=O)O)O3)O2)O1 | 112 % of DMSO

Other studies, line by line
CAMK2A: Calcium/calmodulin-dependent protein kinase type II subunit alpha (CAMK2A, Homo sapiens, UniProt Q9UQM7)
Chain of UniProt Q9UQM7 (whole entry, looked up): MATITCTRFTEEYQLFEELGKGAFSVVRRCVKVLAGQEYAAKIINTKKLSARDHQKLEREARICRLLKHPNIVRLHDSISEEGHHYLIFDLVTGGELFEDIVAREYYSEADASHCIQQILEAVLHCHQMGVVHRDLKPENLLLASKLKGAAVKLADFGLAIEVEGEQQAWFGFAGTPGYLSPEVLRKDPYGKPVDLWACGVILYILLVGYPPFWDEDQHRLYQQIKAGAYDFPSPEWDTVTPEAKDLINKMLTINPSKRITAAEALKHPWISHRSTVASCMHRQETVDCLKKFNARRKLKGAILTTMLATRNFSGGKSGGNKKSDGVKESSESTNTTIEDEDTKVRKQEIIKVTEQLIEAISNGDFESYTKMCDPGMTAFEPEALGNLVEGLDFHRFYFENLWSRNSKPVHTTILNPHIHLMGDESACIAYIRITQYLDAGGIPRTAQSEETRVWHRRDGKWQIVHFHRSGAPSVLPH
SMILES | target or system | test | test system | conditions | measurement | result
CC1=C(O)C(=O)C=C2C1=CC=C1[C@@]2(C)CC[C@@]2(C)[C@@H]3C[C@](C)(C(=O)O)CC[C@]3(C)CC[C@]12C | CAMK2A | enzyme activity, inhibitor |  | 10 µM | inhibition | -38%
Cc1c(N2CCNCC2)nc2ccc(Br)cc2c1C(=O)NC[C@H](CCC(=O)O)c1ccccc1Cl | Alpha-2B adrenergic receptor (ADRA2B, Homo sapiens, UniProt P18089) | ligand displacement |  | 10 µM | inhibition | -3.2%
CCCCCCC(=O)CCCCCC/C=C/C[C@@H](O)[C@H](O)[C@@](N)(CO)C(=O)O | CAMK2A | enzyme activity, inhibitor |  | 10 µM | inhibition | 0%
CC(C)n1cnc(-c2ccc(F)cc2)c1-c1ncc(C(=O)Nc2ccc(N3CCN(C)CC3)cc2)[nH]1 |  |  | human, idiopathic pulmonary fibrosis | 30 mg twice daily, trial, without standard of care | serious AEs resulting in death | 10%
Cc1c([C@H](C)[C@@H]2NC[C@@H](C)C[C@H]2O)ccc2c1C[C@H]1[C@H]2CC=C2C[C@@H](O)CC[C@@]21C | CAMK2A | enzyme activity, inhibitor |  | 10 µM | inhibition | -31%

A few entries again (series 1):
target | remaining activity
Tyrosine-protein kinase Blk (BLK, Homo sapiens, UniProt P51451) | 87.8%
Mitogen-activated protein kinase kinase kinase kinase 4 (MAP4K4, Homo sapiens, UniProt O95819) | 93%
Homeodomain-interacting protein kinase 2 (HIPK2, Homo sapiens, UniProt Q9H2X6) | 99.6%
cAMP-dependent protein kinase catalytic subunit gamma (PRKACG, Homo sapiens, UniProt P22612) | 96.1%
Tyrosine-protein kinase Srms (SRMS, Homo sapiens, UniProt Q9H3Y6) | 103%
